Published values of several laboratories.
Every numbered part comes from another study and shows a few of its results, in no order. ± gives the spread as reported.

Sample 1
Molecule: deucravacitinib
Species: human
Notes: multiple dose
conditions	abdominal pain incidence
2 mg twice daily	11.1%
12 mg twice daily	22.2%
6 mg twice daily	0%

Single results of other studies
Molecule	test	test system	conditions	measurement	value
chicoric acid	UPLC	broiler chicken, plasma	oral gavage, 20 mg/kg	AUC(0-inf)	490 ± 164 ng·h/mL
semaglutide	refers to: mild severity	human, safety analysis set	concentration not given, 32 weeks, run-in	participants with adverse events	68.8%
maraviroc	–	white CYP3A5 poor metabolizers, plasma	300 mg twice daily	AUC(0-12h)	2950 ng·h/mL

For quick reference, copied from above (single results of other studies):
Molecule	test	test system	conditions	measurement	value
semaglutide	refers to: mild severity	human, safety analysis set	concentration not given, 32 weeks, run-in	participants with adverse events	68.8%
